Results from different studies.
A part holds a random share of what one study measured.

Sample 1 — method: competition protein-binding microarray; molecule type: double-stranded DNA, one strand shown; medium: in vitro; tested at: 2 µM; added: Pho4 competitor, 0.05 µM; reading: higher = stronger binding; shared flanks, not repeated: … GTCTTGATTCGCTTGACGCTGCTG
Target: Centromere-binding protein 1, full length, His-tagged (CBF1, Saccharomyces cerevisiae, UniProt P17106, residues 1-351)
Sequence of UniProt P17106 (whole entry, looked up): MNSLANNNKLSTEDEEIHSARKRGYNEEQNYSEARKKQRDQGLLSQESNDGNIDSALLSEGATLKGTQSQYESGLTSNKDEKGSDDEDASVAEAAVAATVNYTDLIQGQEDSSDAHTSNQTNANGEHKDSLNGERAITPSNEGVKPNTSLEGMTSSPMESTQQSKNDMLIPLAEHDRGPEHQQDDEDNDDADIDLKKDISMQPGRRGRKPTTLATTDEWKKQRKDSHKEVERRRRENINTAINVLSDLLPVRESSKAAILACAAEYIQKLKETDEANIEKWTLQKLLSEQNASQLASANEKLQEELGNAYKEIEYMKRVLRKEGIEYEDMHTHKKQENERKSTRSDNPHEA
Setting: whole 60-bp probe, lowest competitor level
| Oligonucleotide | fluorescence intensity [a.u.] |
| --- | --- |
| ATCAGGCATTCATTGACCGTGCCGAACAAACCAAGC | 61.9 |
| CTTCTGTAAATTTGCCTCGTGGGTGGACGCGCCCCG | 96.6 |
| CATACCCAACCTTGTCACCTTACTTAAGATATTTGT | 88.5 |
| TAAGGTATTACGAGACACATGGAATACTAAGAATAT | 128 |
| TTCTCTAAAAGCCATCACGTGACTCGTTGAATCACT | 17600 |

Sample 2 — method: protein binding microarray; molecule type: double-stranded DNA, one strand shown; medium: in vitro; tested at: not given; baseline: not given; reading: higher = stronger binding
Target: Histone acetyltransferase KAT6A, both winged helices, GST fusion (KAT6A, Homo sapiens, UniProt Q92794, residues 1-181)
Setting: 8-mer, flanks averaged, mean of 2 arrays, mostly near background
Residues (chain): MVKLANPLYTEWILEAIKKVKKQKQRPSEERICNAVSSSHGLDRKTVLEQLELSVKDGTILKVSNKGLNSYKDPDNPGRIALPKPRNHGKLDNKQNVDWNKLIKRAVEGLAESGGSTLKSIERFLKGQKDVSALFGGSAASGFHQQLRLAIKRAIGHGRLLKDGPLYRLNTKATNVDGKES
| Oligonucleotide | E-score |
| --- | --- |
| TAGAGCGA | -0.0756 |
| CCTGTCCA | -0.102 |
| AGATACCT | -0.13 |
| TAATCACA | -0.13 |

Sample 3 — method: aptamer microarray, sandwich; molecule type: DNA with 2'F-ANA; medium: in vitro; tested at: 200 nM; added: Cy3 exosite-II aptamer, 400 nM; reading: higher = stronger binding
Target: Prothrombin, mature alpha-thrombin (F2, Homo sapiens, UniProt P00734)
Setting: whole 15-mer aptamer, many near background
| Oligonucleotide | mean fluorescence intensity [a.u.] |
| --- | --- |
| GGTTGGTGTGGTTGG (2'F-ANA at 2 3 5 8 10 11 12 13) | 55.5 |
| GGTTGGTGTGGTTGG (2'F-ANA at 2 3 4 5 7 9 10 11 12 14 15) | 49.2 |
| GGTTGGTGTGGTTGG (2'F-ANA at 1 2 3 4 6 9 10 13) | 55.4 |
| GGTTGGTGTGGTTGG (2'F-ANA at 1 2 3 5 6 8 9 11 12) | 104 |

Further values, each from its own experiment
| Molecule | target | test | test system | conditions | how to read | endpoint | result |
| --- | --- | --- | --- | --- | --- | --- | --- |
| PhoQ, residues 284 288 289 292 302 303 SMYGEC | PhoP, residues 12 14 15 18 19 NYFTV (Escherichia coli, UniProt P23836) | Sort-seq, measured: YFP reporter | E. coli | PhoQ-PhoP variant library, added: 10 µM Mg2+ | baseline: high Mg2+ state, higher = stronger signaling | fold induction | 1.35 |

Repeated from above (sample 1):
| Oligonucleotide | fluorescence intensity [a.u.] |
| --- | --- |
| ATCAGGCATTCATTGACCGTGCCGAACAAACCAAGC | 61.9 |
| CATACCCAACCTTGTCACCTTACTTAAGATATTTGT | 88.5 |
